Measurements of several laboratories.
Compare with care: the assays were run in different laboratories.
Target: Ephrin type-B receptor 3 (EPHB3, Homo sapiens, UniProt P54753)
Sequence (P54753 34-998, as in one of the studies): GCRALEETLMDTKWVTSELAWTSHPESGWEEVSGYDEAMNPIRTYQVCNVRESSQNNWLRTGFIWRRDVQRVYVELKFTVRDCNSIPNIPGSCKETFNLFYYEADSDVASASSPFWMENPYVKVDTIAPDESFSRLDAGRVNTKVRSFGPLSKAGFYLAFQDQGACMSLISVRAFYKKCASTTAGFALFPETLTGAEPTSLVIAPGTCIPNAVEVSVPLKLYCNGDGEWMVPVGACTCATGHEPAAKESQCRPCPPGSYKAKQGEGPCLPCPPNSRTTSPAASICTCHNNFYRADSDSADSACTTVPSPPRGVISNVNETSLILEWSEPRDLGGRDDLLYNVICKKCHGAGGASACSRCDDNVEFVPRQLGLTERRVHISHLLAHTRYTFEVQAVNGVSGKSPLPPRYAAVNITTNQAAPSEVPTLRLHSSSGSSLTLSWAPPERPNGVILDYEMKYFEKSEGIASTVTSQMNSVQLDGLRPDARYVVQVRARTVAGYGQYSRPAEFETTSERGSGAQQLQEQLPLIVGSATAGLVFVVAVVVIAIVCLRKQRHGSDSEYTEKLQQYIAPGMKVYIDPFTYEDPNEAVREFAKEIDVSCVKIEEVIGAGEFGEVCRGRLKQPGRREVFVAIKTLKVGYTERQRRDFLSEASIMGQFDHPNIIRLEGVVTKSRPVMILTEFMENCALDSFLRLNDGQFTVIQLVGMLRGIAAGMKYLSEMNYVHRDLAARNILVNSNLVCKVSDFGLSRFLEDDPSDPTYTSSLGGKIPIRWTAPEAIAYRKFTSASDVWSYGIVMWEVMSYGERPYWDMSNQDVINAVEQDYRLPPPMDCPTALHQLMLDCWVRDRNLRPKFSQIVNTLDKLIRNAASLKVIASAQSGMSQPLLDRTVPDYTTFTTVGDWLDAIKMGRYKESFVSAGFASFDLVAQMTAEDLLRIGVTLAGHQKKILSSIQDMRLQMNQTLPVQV

Structure (SMILES) | test | conditions | how to read | measurement | value
Cc1cc(Nc2cc(N3CCN(C)CC3)nc(Sc3ccc(NC(=O)C4CC4)cc3)n2)[nH]n1 | kinase activity, KinaseProfiler | 0.03 µM, species human | reference: control | remaining activity | 104%
C=CC(=O)N1CCC[C@@H](n2nc(-c3ccc(Oc4ccccc4)cc3)c3c(N)ncnc32)C1 | – | 10 µM | – | remaining activity | 114%
CNc1ncc2c(/C=C/C(=O)N3CCC(OC)CC3)nn(Cc3cccc(C(F)(F)F)c3)c2n1 | kinase activity, inhibitor | 1 µM | reference: untreated control | remaining activity | 92%
COc1cc(-c2cncc3c2CN(C)Cc2cc(N4CCNCC4)ccc2-3)cc(OC)c1OC | kinase activity | 1 µM, human enzyme, together with: ATP 10 µM | reference: DMSO control | remaining activity | 93%
C=CC(=O)N1CCC(COCC(=O)N2CCN(c3nc(-c4cnc(N)nc4C(F)F)nc(N4CCOC[C@@H]4C)n3)CC2)CC1 | KINOMEscan | 1 µM | – | remaining binding | 100%
O=C1NC(=O)/C(=C/c2ccc(-c3ccc(F)cc3O)o2)S1 | enzyme activity | 10 µM | – | remaining activity | 52%
O=C(NC1CCC1)c1ccc2nc(-c3cccc(NS(=O)(=O)NCCN4CCCCC4)c3)cn2c1 | enzyme activity | 10 µM | – | remaining activity | 81%
COc1cc(F)ccc1-c1ncnc(Nc2cccc(C[S@](C)(=N)=O)c2)n1 | kinase activity | 10 µM, together with: 10 µM ATP | – | remaining activity | 102%

Repeated from above:
Structure (SMILES) | test | conditions | how to read | measurement | value
C=CC(=O)N1CCC(COCC(=O)N2CCN(c3nc(-c4cnc(N)nc4C(F)F)nc(N4CCOC[C@@H]4C)n3)CC2)CC1 | KINOMEscan | 1 µM | – | remaining binding | 100%
